# Experimental data of several laboratories.
# ± marks the error that the study gave.
# Gamma-aminobutyric acid receptor subunit alpha-2/beta-1/gamma-2: Gamma-aminobutyric acid receptor subunit alpha-2/beta-1/gamma-2 (Homo sapiens, UniProt P18505+P18507+P47869)
# UniProt P18507, sequence (whole entry, looked up): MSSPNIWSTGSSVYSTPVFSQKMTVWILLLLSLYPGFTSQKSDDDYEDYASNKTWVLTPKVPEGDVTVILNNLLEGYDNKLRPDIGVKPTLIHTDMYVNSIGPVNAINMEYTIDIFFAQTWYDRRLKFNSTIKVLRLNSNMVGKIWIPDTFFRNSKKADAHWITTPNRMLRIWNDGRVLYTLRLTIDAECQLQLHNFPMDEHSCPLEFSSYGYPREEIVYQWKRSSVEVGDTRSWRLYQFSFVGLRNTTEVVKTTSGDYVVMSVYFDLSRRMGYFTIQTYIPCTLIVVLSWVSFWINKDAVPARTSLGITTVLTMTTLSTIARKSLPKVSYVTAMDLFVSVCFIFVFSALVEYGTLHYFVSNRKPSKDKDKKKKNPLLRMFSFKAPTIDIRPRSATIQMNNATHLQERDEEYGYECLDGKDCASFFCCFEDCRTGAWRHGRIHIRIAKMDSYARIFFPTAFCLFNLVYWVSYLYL
# UniProt P47869, sequence (whole entry, looked up): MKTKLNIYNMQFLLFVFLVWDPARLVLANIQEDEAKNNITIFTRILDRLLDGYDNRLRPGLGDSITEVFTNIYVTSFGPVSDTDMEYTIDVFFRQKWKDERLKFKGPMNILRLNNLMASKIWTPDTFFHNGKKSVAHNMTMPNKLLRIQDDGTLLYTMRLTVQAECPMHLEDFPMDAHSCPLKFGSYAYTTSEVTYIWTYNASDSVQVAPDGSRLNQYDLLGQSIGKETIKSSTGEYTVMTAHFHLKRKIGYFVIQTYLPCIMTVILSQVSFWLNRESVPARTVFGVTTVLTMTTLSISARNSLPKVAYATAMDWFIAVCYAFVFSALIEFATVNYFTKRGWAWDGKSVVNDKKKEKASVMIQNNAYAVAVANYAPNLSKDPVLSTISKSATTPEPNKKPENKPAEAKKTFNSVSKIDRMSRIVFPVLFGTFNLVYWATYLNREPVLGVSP
# UniProt P18505, sequence (whole entry, looked up): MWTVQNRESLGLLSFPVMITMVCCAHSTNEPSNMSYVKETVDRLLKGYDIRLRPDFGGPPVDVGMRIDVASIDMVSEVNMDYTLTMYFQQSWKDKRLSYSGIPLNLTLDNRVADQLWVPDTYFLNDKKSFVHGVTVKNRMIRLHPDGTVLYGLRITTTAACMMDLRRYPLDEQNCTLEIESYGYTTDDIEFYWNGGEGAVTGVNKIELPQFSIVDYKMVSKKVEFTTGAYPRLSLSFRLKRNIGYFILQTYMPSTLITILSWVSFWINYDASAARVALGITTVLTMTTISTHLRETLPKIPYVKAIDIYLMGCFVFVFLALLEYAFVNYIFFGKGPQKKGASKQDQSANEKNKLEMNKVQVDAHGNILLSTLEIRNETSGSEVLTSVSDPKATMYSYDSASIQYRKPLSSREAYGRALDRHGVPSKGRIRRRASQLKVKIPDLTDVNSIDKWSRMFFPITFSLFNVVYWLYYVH
# UniProt P48169, sequence (whole entry, looked up): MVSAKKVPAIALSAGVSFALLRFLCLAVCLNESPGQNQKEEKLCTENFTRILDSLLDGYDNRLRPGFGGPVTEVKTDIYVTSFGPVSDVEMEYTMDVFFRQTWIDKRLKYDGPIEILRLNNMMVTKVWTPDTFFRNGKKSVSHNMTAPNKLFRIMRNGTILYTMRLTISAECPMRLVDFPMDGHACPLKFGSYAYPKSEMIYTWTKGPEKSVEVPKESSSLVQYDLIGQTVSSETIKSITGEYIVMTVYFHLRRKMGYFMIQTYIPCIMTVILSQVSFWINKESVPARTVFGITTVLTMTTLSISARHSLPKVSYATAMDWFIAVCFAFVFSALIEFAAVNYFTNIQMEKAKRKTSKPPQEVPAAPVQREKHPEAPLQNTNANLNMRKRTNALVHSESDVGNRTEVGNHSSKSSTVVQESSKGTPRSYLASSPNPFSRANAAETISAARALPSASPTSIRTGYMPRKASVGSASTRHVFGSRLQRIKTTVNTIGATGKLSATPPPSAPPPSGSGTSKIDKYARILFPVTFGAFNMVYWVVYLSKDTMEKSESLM
# UniProt O14764, sequence (whole entry, looked up): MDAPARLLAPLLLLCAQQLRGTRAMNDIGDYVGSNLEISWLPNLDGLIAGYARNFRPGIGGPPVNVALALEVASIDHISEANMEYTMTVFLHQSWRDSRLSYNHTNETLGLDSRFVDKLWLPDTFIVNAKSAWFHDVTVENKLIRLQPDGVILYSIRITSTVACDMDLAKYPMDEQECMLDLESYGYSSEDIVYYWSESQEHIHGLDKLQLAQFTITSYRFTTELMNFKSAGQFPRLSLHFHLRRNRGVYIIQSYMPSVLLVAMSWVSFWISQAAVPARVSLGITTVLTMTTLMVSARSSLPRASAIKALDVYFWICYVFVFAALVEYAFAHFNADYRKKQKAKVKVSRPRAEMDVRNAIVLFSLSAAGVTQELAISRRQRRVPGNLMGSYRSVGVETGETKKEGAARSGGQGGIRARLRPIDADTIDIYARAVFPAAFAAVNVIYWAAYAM
# UniProt P28472, sequence (whole entry, looked up): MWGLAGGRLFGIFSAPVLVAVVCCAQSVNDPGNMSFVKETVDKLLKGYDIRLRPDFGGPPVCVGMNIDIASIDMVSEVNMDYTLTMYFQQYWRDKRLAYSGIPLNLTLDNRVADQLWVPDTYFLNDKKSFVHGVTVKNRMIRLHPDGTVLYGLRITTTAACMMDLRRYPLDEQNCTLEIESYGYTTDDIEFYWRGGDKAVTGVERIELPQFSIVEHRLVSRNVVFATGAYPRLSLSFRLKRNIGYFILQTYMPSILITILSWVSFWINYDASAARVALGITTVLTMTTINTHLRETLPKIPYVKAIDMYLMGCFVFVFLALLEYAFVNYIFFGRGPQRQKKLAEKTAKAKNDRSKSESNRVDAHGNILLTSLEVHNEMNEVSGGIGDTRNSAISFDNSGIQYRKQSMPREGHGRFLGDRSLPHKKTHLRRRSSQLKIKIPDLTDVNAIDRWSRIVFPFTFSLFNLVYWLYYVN
# UniProt P07550, sequence (whole entry, unmodified, looked up): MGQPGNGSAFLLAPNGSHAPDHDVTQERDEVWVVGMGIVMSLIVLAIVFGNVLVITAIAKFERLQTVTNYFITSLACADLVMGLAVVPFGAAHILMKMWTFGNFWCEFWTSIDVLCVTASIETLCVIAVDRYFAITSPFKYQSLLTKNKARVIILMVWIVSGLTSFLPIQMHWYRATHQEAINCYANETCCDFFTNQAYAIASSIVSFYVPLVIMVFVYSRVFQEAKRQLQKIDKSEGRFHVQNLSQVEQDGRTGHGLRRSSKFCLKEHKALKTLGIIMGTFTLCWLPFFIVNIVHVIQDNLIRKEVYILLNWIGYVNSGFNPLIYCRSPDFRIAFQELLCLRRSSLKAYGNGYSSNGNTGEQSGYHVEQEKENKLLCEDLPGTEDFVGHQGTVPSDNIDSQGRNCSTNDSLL
# UniProt Q02152, sequence (whole entry, looked up): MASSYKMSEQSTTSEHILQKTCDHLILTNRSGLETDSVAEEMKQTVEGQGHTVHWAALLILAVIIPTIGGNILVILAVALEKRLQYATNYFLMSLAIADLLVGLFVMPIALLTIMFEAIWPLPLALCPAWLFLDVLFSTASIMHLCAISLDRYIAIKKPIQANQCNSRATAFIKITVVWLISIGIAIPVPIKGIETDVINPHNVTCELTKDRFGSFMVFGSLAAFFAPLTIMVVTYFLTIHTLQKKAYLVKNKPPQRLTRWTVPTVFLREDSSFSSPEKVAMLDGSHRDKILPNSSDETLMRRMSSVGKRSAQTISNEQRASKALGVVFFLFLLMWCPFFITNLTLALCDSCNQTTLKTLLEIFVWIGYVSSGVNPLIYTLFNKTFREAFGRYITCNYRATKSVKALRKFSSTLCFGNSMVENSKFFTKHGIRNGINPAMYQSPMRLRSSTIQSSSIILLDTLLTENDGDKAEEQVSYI
# UniProt P47746, sequence (whole entry, looked up): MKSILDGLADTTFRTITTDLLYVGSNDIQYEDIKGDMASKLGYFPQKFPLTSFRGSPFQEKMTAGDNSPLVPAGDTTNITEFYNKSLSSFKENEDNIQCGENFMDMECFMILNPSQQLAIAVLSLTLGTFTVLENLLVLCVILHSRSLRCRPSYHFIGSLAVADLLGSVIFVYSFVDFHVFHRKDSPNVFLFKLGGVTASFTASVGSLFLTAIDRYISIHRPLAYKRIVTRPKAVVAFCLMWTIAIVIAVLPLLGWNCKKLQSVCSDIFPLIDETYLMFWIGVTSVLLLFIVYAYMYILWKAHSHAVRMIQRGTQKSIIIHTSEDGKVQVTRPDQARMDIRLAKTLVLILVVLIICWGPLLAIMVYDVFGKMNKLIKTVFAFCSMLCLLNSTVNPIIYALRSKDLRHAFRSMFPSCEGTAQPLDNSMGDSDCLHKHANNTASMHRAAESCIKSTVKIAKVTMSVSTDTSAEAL
# UniProt P18508, sequence (whole entry, unmodified, looked up): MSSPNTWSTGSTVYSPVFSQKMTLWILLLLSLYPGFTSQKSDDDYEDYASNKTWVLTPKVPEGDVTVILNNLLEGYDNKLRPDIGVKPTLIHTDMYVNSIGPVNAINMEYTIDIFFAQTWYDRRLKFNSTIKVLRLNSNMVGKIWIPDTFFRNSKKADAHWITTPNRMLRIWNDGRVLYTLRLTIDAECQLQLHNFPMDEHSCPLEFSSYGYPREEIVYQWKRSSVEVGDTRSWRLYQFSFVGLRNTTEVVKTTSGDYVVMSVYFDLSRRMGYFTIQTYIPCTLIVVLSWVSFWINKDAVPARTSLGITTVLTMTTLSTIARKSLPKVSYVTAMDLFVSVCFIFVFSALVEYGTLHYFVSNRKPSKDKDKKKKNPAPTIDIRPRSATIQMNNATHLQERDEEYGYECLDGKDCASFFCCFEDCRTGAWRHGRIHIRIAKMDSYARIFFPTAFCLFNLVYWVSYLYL
SMILES,target,test,test system,conditions,EC50 [µM]
CC(=O)[C@H]1CC[C@H]2[C@@H]3CC[C@H]4C[C@](C)(O)CC[C@]4(C)[C@H]3CC[C@]12C,"Gamma-aminobutyric acid receptor subunit alpha-4/beta3/delta (Homo sapiens, UniProt O14764+P28472+P48169)","GABA current potentiation, positive modulator, two-electrode voltage clamp",Xenopus laevis oocytes,"30 s preincubation, with: GABA EC10",0.25 ± 0.06
CN(C(=O)/C=C/c1ccoc1)[C@@H]1CC[C@@]2(O)[C@H]3Cc4cccc5c4[C@@]2(CCN3CC2CC2)[C@H]1O5,"Oprm1 (Rattus norvegicus, UniProt P33535)","GTPγS binding, agonist",,cell membranes,0.215
CC(=O)[C@H]1CC[C@H]2[C@@H]3CC[C@H]4C[C@H](O)CC[C@]4(C)[C@H]3CC[C@]12C,Gamma-aminobutyric acid receptor subunit alpha-2/beta-1/gamma-2,"GABA current potentiation, positive modulator, two-electrode voltage clamp",Xenopus laevis oocytes,"30 s preincubation, with: GABA EC10",0.27 ± 0.2
CCCCCCC(C)(C)c1ccc([C@@H]2C[C@H](O)CC[C@H]2CCCO)c(O)c1,"Cnr2 (Rattus norvegicus, UniProt Q9QZN9)","cAMP level, agonist",,with: forskolin 10 µM,0.0011 ± 0.0001
NCCc1ccccc1,"TAAR1 (Homo sapiens, UniProt Q96RJ0)","cAMP, agonist",,,0.193
C[C@H](N)Cc1cccc(C(F)(F)F)c1,"5-hydroxytryptamine receptor 2B (Mus musculus, UniProt Q02152)","Gq dissociation, agonist, BRET",,"60 min, 37 °C",0.018
C[C@@]1(O)CC[C@H]2[C@H](CC[C@@H]3[C@@H]2CC[C@]2(C)[C@@H](C(=O)Cn4cc(C#N)cn4)CC[C@@H]32)C1,Gamma-aminobutyric acid receptor subunit alpha-2/beta-1/gamma-2,"GABA current potentiation, positive modulator, two-electrode voltage clamp",Xenopus laevis oocytes,"30 s preincubation, with: GABA EC10",0.18 ± 0.04
CCCCn1cc(C(=O)c2cccc3ccccc23)c2c(O)cccc21,"Cnr1 (Mus musculus, UniProt P47746)","GTPγS binding, agonist",,cell membranes,0.113
CC1(C)C(C(=O)c2cn(CCCCCF)c3ccccc23)C1(C)C,"TRPV1 (Homo sapiens, UniProt Q8NER1)","calcium signal, agonist, fluorescence",,,5.3
C[C@]12CC[C@@H](O)C[C@@H]1CC[C@@H]1[C@@H]2CC[C@]2(C)[C@@H](C(=O)CO)CC[C@@H]12,"Gabrb1/Gabrg2/Gabra1 (Rattus norvegicus, UniProt P15431+P18508+P62813, S325C)","ion current, agonist, two-electrode voltage clamp",Xenopus oocytes,first activation phase,0.00073
CC(Cc1ccc2c(c1)OCO2)NCC(O)c1ccc(O)c(O)c1 (centres unmarked),"Beta-2 adrenergic receptor, V2R C-tail chimera (ADRB2, Homo sapiens, UniProt P07550)",agonist,,concentration not given,0.00501
